Results of several laboratories.
Every numbered part comes from another study and shows a few of its results, in no order.

Set 1
Target: RNA binding protein fox-1 homolog 2, RRM domain, GST-SBP tag (RBFOX2, Homo sapiens, UniProt O43251-10, residues 100-194)
Method: RNA Bind-n-Seq
Form: RNA
Sample: in vitro
Tested at: 365 nM
Notes: natural RNA segment, single round, ends assumed
Relative to: no-protein control
Reading: higher = stronger binding
Endpoint: RBNS enrichment (R)
All sequences stand within: GGGAGUUCUACAGUCCGACGAUC … UGGAAUUCUCGGGUGCCAA
Target sequence (chain): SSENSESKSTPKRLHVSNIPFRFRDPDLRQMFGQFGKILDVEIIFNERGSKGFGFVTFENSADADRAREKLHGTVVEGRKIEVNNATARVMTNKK
UGUGGCUCUGAGCUGCUCUACAGAGCUUCAGUGUGAGAGGAUCGAGCCAUUGAAAGCUCAUUACCAGUAGGACAUAAUUUUUGGCUCUCCCUAUUCACAACCAGUGCACA: 0.35
CUGGAUCAUGGUUUUCUUCCUUACUUACAGGUUGCUUCACACUGAGUGAUAAUUUAAAAUUGUUUCUAUGUAGAAUCAUUGUCUCUACUGUUGCCCUCUCUGUGUCUGCA: 1.23
CUGAGGCUGAGGGUAGAUGGGUUCAGUUCAGUGUCUCCUGCCCAGACUGGACAUCUUGGUCUUUUUCUCAGGUCUGAAAGGAACCAUUUUUUGGUAUGAUAAAGACCCCA: 0.319
CAUUUGCUUCUCUCCUUCCUGGAAAGCUUCCCUUUAUGUUUUAUUUUGACCCCAGAUGUCCAGAUGUUUUGCAGUGUCUGGGGCUUGUGUCCCUUGUUCUUCGUUCUGCU: 2
AGGAAACUUUUCUUAUAAAGAGAAAAAAAAGUUACAAUUUACUACUGCCCUAGUUAGGACAGACAUGCUUGUCUCUCCUAGGUAAAAGGUCAGGUCCCCGAGUCAUUUCU: 0.461
AGAAAAUAUAUACAUUUAUUUAGCCAAAAGGAAUGAAGAAAGCAUUUACACAUUUGUGUUUUAUCUGAUUCUGUUCAGUUCUCAAGGAACUUUCACAAUGCUUUCCUAGG: 0.627
GAACUCUGCUCUCAGAGCUAACGUGGAAUCUUCGCACCCAAGGGGAGGGUUGUGGUUCCUGUCACCUGGGCUGAGGAGCCAGGAAGGCCUAAGCACUUCACUCACACACG: 0.545
ACAGAGAUGGCGCUGCAGGGCCCAGAUGUGUGACUGGGCAUGUUUCCAGGAAAGAGGCCAUCUCUUGGGGGUUUCAGCCAUCUUACCCAGUGUCUGGACUGCUAUAUUGG: 3.04
UUUAGUUGUAUUUUAUACCUGUGAUUUUAUCUCACAUAUCUUGGUAGGAUGGAGGAGACAGAGGUCUGUUGUCAUCUACUGUCGCUGGGUAAUAAGGAGGGAGCUCUGGA: 0.809
UGAAAACAACUAAUUUAAAUUUGCUUUGUUUUCUUUUUUAAGUUGAAUUGACGUUAAUGUGUUUUCACUGGAUUUUAUCUCUCUCAACUUCCUGCACUUAAAAUUUGAAA: 0.9
CACUGGCCUGCUCCUACAGAAGGAAGCAAUCAUAGCUUCUAUUGUUUUAAACAAAACAACAGGAAGAACAGGACCAGGACUCUCCUAUACACAGUGUGUAGGAACAGCUG: 0.266
UUCUCUAGUUCCCUGGCUCAGUAGGACAUUUCUUCCACCCACUCCCAGUCCCCCAACACUCCCUUCUUCGGAUACAGGUGCCAAAGAACAUUGUGAAGAAAUGAAGAACC: 0.3

Set 2
Target: Interferon regulatory factor 7, full length, phosphomimetic (IRF7, Homo sapiens, UniProt Q92985, residues 1-503, S101K/S471D/S472D/S475D/S476D/S477D/S483D/S484D/S487D)
Method: protein-binding microarray
Form: double-stranded DNA, one strand shown
Sample: in vitro
Tested at: 250 nM
Notes: 60-bp whole probe
Together with: salmon DNA 0.4 mg/ml
Relative to: random background probes
Reading: higher = stronger binding
Endpoint: log fluorescence
All sequences stand within: GCCTAGCAC … GTCTTGATTCGCTTGACGCTGCTG
Target sequence (chain): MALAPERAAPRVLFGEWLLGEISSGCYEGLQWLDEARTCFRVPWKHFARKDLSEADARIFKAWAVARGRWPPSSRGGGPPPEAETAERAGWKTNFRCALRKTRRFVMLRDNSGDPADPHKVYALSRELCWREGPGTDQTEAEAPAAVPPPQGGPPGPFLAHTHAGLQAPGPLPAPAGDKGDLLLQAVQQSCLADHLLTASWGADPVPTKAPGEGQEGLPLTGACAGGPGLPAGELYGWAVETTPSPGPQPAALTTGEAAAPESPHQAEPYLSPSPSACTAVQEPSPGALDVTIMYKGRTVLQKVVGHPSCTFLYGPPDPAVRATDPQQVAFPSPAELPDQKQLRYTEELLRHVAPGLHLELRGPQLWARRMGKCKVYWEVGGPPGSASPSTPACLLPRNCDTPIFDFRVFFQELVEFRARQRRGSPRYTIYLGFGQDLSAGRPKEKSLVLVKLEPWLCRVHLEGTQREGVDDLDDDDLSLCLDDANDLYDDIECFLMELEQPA
TTAGGTATCTGACTGGGTTAGTGCTAG: -0.389 z-score
TTAGGACTGGACGTTCGGTTAGTGCTA: -0.0246 z-score
TCAGCTGTGGGTTTGAGACTGTGCTAG: -1.15 z-score
TCATCACTTTCTTTAACACTGTGCTAG: 0.675 z-score
GACGGATTGCTTTTCCTGACGTGCTAG: -0.00666 z-score
CCCTTAAAAGACGTGCCAATGTGCTAG: 0.426 z-score
GACGATATCGGATATCGAGACGTGCTA: 0.282 z-score
GACGATAACGGGTATCGAGACGTGCTA: -0.54 z-score
TTAGAGCTGAGTCTCGATTAGTGCTAG: 0.464 z-score
TCAAGTGTGCCATATTTAACTGTGCTA: -0.425 z-score
TTAGGTTTCCTTCTACTTTAGTGCTAG: 2.36 z-score
GTCGGACTGGACTTTCGGGACGTGCTA: -0.24 z-score
TCACAGAAGGGAAACAGGACTGTGCTA: -0.0265 z-score
TTACGTTTCGACACTGGGTTAGTGCTA: 2.01 z-score
TCATGCTTGTATCTGGGACTGTGCTAG: -0.316 z-score
GACGGTCTCGGGTATCGGGACGTGCTA: 1.17 z-score
TTAGAACTGAGTATCGATTAGTGCTAG: 0.591 z-score
TTAGATATCAGTACCGATTAGTGCTAG: 0.401 z-score
GTTTGTGTGTGTATGTGGTCGTGCTAG: 0.0256 z-score
CTGCACTCCAGTCTGGGAGAGTGCTAG: -0.392 z-score
TTAGGTTTCCTAGTGCTTTAGTGCTAG: 1.41 z-score
GACGATCTCAATATCGAGACGTGCTAG: 0.192 z-score
TTAGGACTGGATTTTCGGTTAGTGCTA: 1.12 z-score
GAAGAACTGGGGTTTCGAGACGTGCTA: 2.43 z-score

Set 3
Target: Sal-like protein 4, full length isoform A (SALL4, Homo sapiens, UniProt Q9UJQ4, residues 1-1053)
UniProt Q9UJQ4, sequence (whole entry, looked up): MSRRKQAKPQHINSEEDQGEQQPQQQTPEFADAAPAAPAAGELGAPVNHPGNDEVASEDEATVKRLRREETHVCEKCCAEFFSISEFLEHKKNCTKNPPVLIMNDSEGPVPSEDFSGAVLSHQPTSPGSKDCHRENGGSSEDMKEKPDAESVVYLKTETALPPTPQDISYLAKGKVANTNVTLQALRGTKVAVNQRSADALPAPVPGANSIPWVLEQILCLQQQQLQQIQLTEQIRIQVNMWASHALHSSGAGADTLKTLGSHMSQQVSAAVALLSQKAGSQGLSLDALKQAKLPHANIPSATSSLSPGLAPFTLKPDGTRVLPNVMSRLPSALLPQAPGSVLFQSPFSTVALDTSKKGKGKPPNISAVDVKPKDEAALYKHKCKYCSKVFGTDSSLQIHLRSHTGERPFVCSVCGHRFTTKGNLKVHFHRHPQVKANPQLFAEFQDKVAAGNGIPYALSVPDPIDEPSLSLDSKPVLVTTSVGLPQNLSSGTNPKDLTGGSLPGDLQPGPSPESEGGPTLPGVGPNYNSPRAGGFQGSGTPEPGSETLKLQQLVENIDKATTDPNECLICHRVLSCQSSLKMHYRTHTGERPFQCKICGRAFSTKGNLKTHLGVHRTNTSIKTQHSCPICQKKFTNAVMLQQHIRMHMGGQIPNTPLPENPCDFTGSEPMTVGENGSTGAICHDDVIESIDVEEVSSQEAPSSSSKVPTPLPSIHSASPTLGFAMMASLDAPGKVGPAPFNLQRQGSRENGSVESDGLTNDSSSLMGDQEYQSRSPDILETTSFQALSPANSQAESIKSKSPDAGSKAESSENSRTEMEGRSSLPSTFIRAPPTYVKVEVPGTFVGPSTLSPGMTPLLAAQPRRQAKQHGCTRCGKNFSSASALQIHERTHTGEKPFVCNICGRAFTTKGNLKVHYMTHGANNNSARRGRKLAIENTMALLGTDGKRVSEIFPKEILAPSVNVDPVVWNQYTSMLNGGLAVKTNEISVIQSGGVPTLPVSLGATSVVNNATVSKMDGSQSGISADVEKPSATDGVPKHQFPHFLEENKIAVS
Method: universal PBM
Form: double-stranded DNA, one strand shown
Sample: in vitro
Tested at: 600 nM
Notes: 8-mer, flanks averaged, mean of replicates
Reading: higher = stronger binding
Endpoint: E-score
AAGGGCCT: -0.256
AAAAATGG: 0.245
CACAAAAA: 0.22
AGCCTTCG: -0.207
TGACAGCA: 0.0412
CTTAGGGA: -0.18
ATTCGACG: 0.0456
TCCATGCA: 0.0268
GCTACGAA: 0.0207
TGCGGTAA: 0.127
AGATAGGG: -0.12
GCACTTCA: 0.0993
AGTAACTC: -0.103
CTTCCCTC: -0.0837
CCCCACGA: -0.203
ACACGCCA: -0.225
AACCTTAG: 0.0152
ACGAGTCG: -0.221
ACAGCCGG: -0.25
AGTATACG: 0.17
CCAGTCAC: -0.169
ATAGATTG: 0.226
CTTAAGTA: 0.125

Set 4
Target: Histone acetyltransferase KAT6A, winged helix 1, GST fusion (KAT6A, Homo sapiens, UniProt Q92794, residues 1-85)
Method: protein binding microarray
Form: double-stranded DNA, one strand shown
Sample: in vitro
Tested at: not given
Notes: 8-mer, flanks averaged, mean of 2 arrays, mostly near background
Relative to: not given
Reading: higher = stronger binding
Endpoint: E-score
Target sequence (chain): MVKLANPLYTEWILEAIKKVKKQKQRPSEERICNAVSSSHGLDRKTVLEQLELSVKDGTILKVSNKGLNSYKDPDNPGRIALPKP
GAGTCTCA: -0.0887
GAAATTAC: -0.0664
CCACAGCG: 0.0954
CCCCTTCA: -0.102
AGACAGAA: -0.23
ACGCGGTC: 0.391
ATGCATGG: -0.0328
AATATGGC: -0.0702
AGCGCCAA: 0.104
AATGCCGC: 0.421
TCGAATCA: -0.186
GTAATAAC: -0.0102
AGGACGCG: 0.264
GAAGCCGA: 0.194
GATCGGCA: 0.141
GAGCGCAC: 0.305
ACGGAACG: 0.248
CGCATGAA: 0.0736
CCAGTTAC: -0.0987
GCACTCGA: -0.198
CGAAATCC: -0.046
CCGAGGCA: 0.00822
GCACTCCA: -0.0336
CCAAAGAA: -0.267
ATGTTTTG: -0.0629

Set 5
Target: Prothrombin, mature alpha-thrombin (F2, Homo sapiens, UniProt P00734)
Method: aptamer microarray, sandwich
Form: DNA with 2'F-ANA
Sample: in vitro
Tested at: 200 nM
Notes: whole 15-mer aptamer, many near background
Together with: Cy3 exosite-II aptamer, 400 nM
Reading: higher = stronger binding
Endpoint: mean fluorescence intensity
Sequence: GGTTGGTGTGGTTGG
2'F-ANA at 1 5 7 10 11 12 13 15: 47 a.u.
2'F-ANA at 1 2 4 5 8 9 14 15: 253 a.u.
2'F-ANA at 1 4 5 7 13: 55.6 a.u.
2'F-ANA at 3 7 8 9 10 13 15: 479 a.u.
2'F-ANA at 1 3 4 7 8 10 12 13 14: 53.1 a.u.
2'F-ANA at 1 2 3 7 11 15: 236 a.u.
2'F-ANA at 2 3 9 10 13 14 15: 261 a.u.
2'F-ANA at 2 3 5 7 9 10 11 14 15: 63.4 a.u.
2'F-ANA at 1 2 3 5 7 12 13 15: 86.8 a.u.
2'F-ANA at 3 5 8 9 11 12 13 14: 74 a.u.
2'F-ANA at 1 2 3 4 5 6 7 9 11 12 14 15: 51.3 a.u.
2'F-ANA at 1 2 3 4 10 12 13 14: 51.3 a.u.
2'F-ANA at 1 2 5 6 7 8 10 11 14: 48 a.u.
2'F-ANA at 2 4 5 7 8 9 10 12: 52.1 a.u.
2'F-ANA at 5 7 8 12 14 15: 49.3 a.u.
2'F-ANA at 1 2 5 6 9 12 14 15: 159 a.u.
2'F-ANA at 2 3 5 6 9 10 11 13: 47.7 a.u.
2'F-ANA at 1 2 3 4 5 7 9 11 13 14: 46.1 a.u.

A few entries again (set 5):
2'F-ANA at 1 4 5 7 13: 55.6 a.u.
2'F-ANA at 3 7 8 9 10 13 15: 479 a.u.
2'F-ANA at 1 3 4 7 8 10 12 13 14: 53.1 a.u.
2'F-ANA at 1 2 3 7 11 15: 236 a.u.
2'F-ANA at 2 3 9 10 13 14 15: 261 a.u.
2'F-ANA at 2 3 5 7 9 10 11 14 15: 63.4 a.u.
2'F-ANA at 1 2 3 5 7 12 13 15: 86.8 a.u.
2'F-ANA at 3 5 8 9 11 12 13 14: 74 a.u.
2'F-ANA at 1 2 3 4 5 6 7 9 11 12 14 15: 51.3 a.u.
2'F-ANA at 1 2 3 4 10 12 13 14: 51.3 a.u.
2'F-ANA at 1 2 5 6 7 8 10 11 14: 48 a.u.
2'F-ANA at 2 4 5 7 8 9 10 12: 52.1 a.u.
2'F-ANA at 5 7 8 12 14 15: 49.3 a.u.
